{"data": "Experimental data collected from several papers", "cell line": "MCF7", "note": "Lines come from different studies, so protocols differ. ± marks the error that the study gave."}
{"Molecule": "insulin human", "test": "glycogen synthesis, agonist, [14C]glucose incorporation", "conditions": "0% HSA", "quantity": "EC50", "result": "12.2 nM"}
{"Molecule": "Cc1c(C)c2c(c(C)c1OCc1ccccc1)CCC(C)(C(=O)NN=C1C(=O)Nc3ccc(Cl)cc31)O2 (stereo not drawn)", "test": "cell growth or viability, SRB", "conditions": "48 h", "quantity": "GI50", "result": "> 100000 nM"}
{"Molecule": "CC(=NNC(=S)NN=C(C(=NO)c1ccccc1)c1ccccc1)c1ccccc1C", "test": "Western blot, item: NF-κB p65", "conditions": "IC50 concentration, 24 h", "how to read": "baseline: untreated", "quantity": "relative protein level", "result": "0.72 ± 0.05"}
{"Molecule": "O=C(CN1CCN(c2ccccn2)CC1)Nc1nc2ccccc2s1", "test": "cell growth or viability, MTT", "conditions": "100 µM, 72 h", "quantity": "inhibition", "result": "53.1%"}
{"Molecule": "COc1c(C)c(C)c2c(c1C)CCC(C)(C(=O)NN=C1C(=O)Nc3cc(Cl)ccc31)O2 (stereo not drawn)", "test": "cell growth or viability, SRB", "conditions": "48 h", "quantity": "GI50", "result": "38200 nM"}
{"Molecule": "C#C[C@@]1(O)[C@@H](CO)O[C@@H](n2cc(Br)c3c(N)ncnc32)[C@@H]1O", "test": "cell growth or viability, SRB", "conditions": "48 h", "quantity": "GI50", "result": "23 nM"}
{"Molecule": "CCN1C(=O)/C(=C\\c2ccc(OC)c(OC)c2)S/C1=N/N=C(\\C)c1ccccn1", "test": "cell growth or viability, SRB", "conditions": "100 µg/mL, 48 h", "quantity": "inhibition", "result": "61%"}
{"Molecule": "CCCCCCCCCCCCCCCC(=O)N[C@@H](CCCNC(=N)N)C(=O)N[C@@H](CCCCN)C(=O)N[C@@H](CCCNC(=N)N)C(=O)N[C@@H](CC(N)=O)C(=O)N[C@@H](CC(N)=O)C(=O)N[C@@H](CO)C(=O)N[C@@H](CCCNC(=N)N)C(=O)N[C@@H](CC(C)C)C(=O)NCC(=O)N[C@@H](CC(N)=O)C(=O)NCC(=O)N[C@H](C(=O)N[C@@H](CC(C)C)C(=O)N[C@@H](Cc1ccc(O)cc1)C(=O)N[C@@H](C)C(=O)N[C@@H](CO)C(=O)N[C@H](C(=O)N[C@@H](CC(N)=O)C(N)=O)C(C)C)C(C)C", "conditions": "48 h, 1% FBS", "quantity": "TGI", "result": "2700 ± 300 nM"}
{"Molecule": "C/C(=N\\NC(N)=S)c1ccccn1", "test": "cell growth or viability, SRB", "conditions": "100 µg/mL, 48 h", "quantity": "inhibition", "result": "66.2%"}
{"Molecule": "Cc1c(C)c2c(c(C)c1OCc1ccccc1)CCC(C)(C(=O)NN=C1C(=O)Nc3ccc(Br)cc31)O2 (stereo not drawn)", "test": "cell growth or viability, SRB", "conditions": "48 h", "quantity": "GI50", "result": "76600 nM"}
{"Molecule": "CCCCCCCCCCCCCCCC(=O)N[C@@H](Cc1c[nH]cn1)C(=O)N[C@@H](CCCNC(=N)N)C(=O)N[C@@H](CCCCN)C(=O)N[C@@H](CCCNC(=N)N)C(=O)N[C@@H](CC(N)=O)C(=O)N[C@@H](CC(N)=O)C(=O)N[C@@H](CO)C(=O)N[C@@H](CCCNC(=N)N)C(=O)N[C@@H](CC(C)C)C(=O)NCC(=O)N[C@@H](CC(N)=O)C(=O)NCC(=O)N[C@H](C(=O)N[C@@H](CC(C)C)C(=O)N[C@@H](Cc1ccc(O)cc1)C(=O)N[C@@H](C)C(=O)N[C@@H](CO)C(=O)N[C@H](C(N)=O)C(C)C)C(C)C", "conditions": "48 h, 1% FBS", "quantity": "TGI", "result": "1450 ± 300 nM"}
{"Molecule": "CC(C)(C)c1ccc(CN2CCN(C(c3ccccc3)c3ccc(Cl)cc3)CC2)cc1 (stereo not drawn)", "conditions": "72 h", "quantity": "EC50", "result": "19000 nM"}
{"Molecule": "C[C@@H]1O[C@@H](O[C@@H]2[C@@H](O)[C@H](OCCc3ccc(O)c(O)c3)O[C@H](CO)[C@H]2OC(=O)/C=C/c2ccc(O)c(O)c2)[C@H](O)[C@H](O)[C@H]1O", "test": "caspase-3/7 flow cytometry, item: early plus late apoptosis", "conditions": "IC50, 24 h", "quantity": "apoptotic cells", "result": "26.9%"}
{"Molecule": "Cc1c(C)c2c(c(C)c1O)CCC(C)(C(=O)NN=C1C(=O)N(C)c3cc(Cl)ccc31)O2 (stereo not drawn)", "test": "cell growth or viability, SRB", "conditions": "48 h", "quantity": "GI50", "result": "> 100000 nM"}
{"Molecule": "CCOC(=O)c1ccc(NC(=O)C2(OC(=O)c3ccc(NS(=O)(=O)c4ccccc4)cc3)CCCCC2)cc1", "test": "Annexin V/PI flow cytometry", "conditions": "IC50 concentration, 72 h", "quantity": "apoptotic cells", "result": "58.3%"}
{"Molecule": "CC(C)(C)c1ccc(CN2CCN(C(c3ccccc3)c3ccc(Cl)cc3)CC2)cc1 (stereo not drawn)", "test": "lipid droplet formation, Nile Red staining", "conditions": "72 h", "quantity": "EC50", "result": "19000 nM"}
{"Molecule": "O=C(CNc1ccc(I)cc1)Nc1nc2ccccc2s1", "test": "cell growth or viability, MTT", "conditions": "100 µM, 72 h", "quantity": "inhibition", "result": "30.8%"}
{"Molecule": "Cc1c(C)c2c(c(C)c1OCc1ccccc1)CCC(C)(C(=O)NN=C1C(=O)N(C)c3ccccc31)O2 (stereo not drawn)", "test": "cell growth or viability, SRB", "conditions": "48 h", "quantity": "GI50", "result": "> 100000 nM"}
{"Molecule": "NS(=O)(=O)c1ccc(NCC(=O)Nc2nc3ccccc3s2)cc1", "test": "cell growth or viability, MTT", "conditions": "100 µM, 72 h", "quantity": "inhibition", "result": "-8.74%"}
{"Molecule": "CC(=O)c1c(C)c2cnc(Nc3ccc(N4CCNCC4)cn3)nc2n(C2CCCC2)c1=O", "test": "item: phospho-pRb", "conditions": "up to 3.16 µM", "quantity": "time to cell cycle re-entry", "result": "≤ 48 h"}
{"Molecule": "O=C(CC1Sc2ccccc2NC1=O)c1ccc(Cl)cc1 (stereo not drawn)", "test": "propidium iodide flow cytometry", "conditions": "1.29 µM, 24 h", "quantity": "G0/G1 phase cells", "result": "76.2%"}
{"Molecule": "O=C(CNc1ccc([N+](=O)[O-])cc1)Nc1nc2ccccc2s1", "test": "cell growth or viability, MTT", "conditions": "100 µM, 72 h", "quantity": "inhibition", "result": "32%"}
{"Molecule": "CCCCCCCCCCCCCCCC(=O)N[C@@H](CCCCN)C(=O)N[C@@H](CCCNC(=N)N)C(=O)N[C@@H](CC(N)=O)C(=O)N[C@@H](CC(N)=O)C(=O)N[C@@H](CO)C(=O)N[C@@H](CCCNC(=N)N)C(=O)N[C@@H](CC(C)C)C(=O)NCC(=O)N[C@@H](CC(N)=O)C(=O)NCC(=O)N[C@H](C(=O)N[C@@H](CC(C)C)C(=O)N[C@@H](Cc1ccc(O)cc1)C(=O)N[C@@H](C)C(=O)N[C@@H](CO)C(=O)N[C@H](C(=O)N[C@@H](CC(N)=O)C(N)=O)C(C)C)C(C)C", "conditions": "48 h, 1% FBS", "quantity": "TGI", "result": "500 ± 80 nM"}
{"Molecule": "CCn1c(C)c(C(C)=O)s/c1=N/N=C(\\C)c1ccccn1", "test": "cell growth, SRB", "conditions": "100 µg/mL, 48 h", "quantity": "inhibition", "result": "> 70%"}
{"Molecule": "O=C(CNc1ccc(S(=O)(=O)Nc2ccccn2)cc1)Nc1nc2ccccc2s1", "test": "cell growth or viability, MTT", "conditions": "100 µM, 72 h", "quantity": "inhibition", "result": "15.1%"}
{"Molecule": "CCCCCCCCCCCCCCCC(=O)N[C@H](C(=O)N[C@@H](Cc1c[nH]cn1)C(=O)N[C@@H](CCCNC(=N)N)C(=O)N[C@@H](CCCCN)C(=O)N[C@@H](CCCNC(=N)N)C(=O)N[C@@H](CC(N)=O)C(=O)N[C@@H](CC(N)=O)C(=O)N[C@@H](CO)C(=O)N[C@@H](CCCNC(=N)N)C(=O)N[C@@H](CC(C)C)C(=O)NCC(=O)N[C@@H](CC(N)=O)C(=O)NCC(=O)N[C@H](C(=O)N[C@@H](CC(C)C)C(=O)N[C@@H](Cc1ccc(O)cc1)C(=O)N[C@@H](C)C(=O)N[C@@H](CO)C(=O)N[C@H](C(N)=O)C(C)C)C(C)C)C(C)C", "conditions": "48 h, 1% FBS", "quantity": "TGI", "result": "1050 ± 100 nM"}
{"Molecule": "NS(=O)(=O)c1ccc(NC(=O)CNNc2nc3ccccc3c(=O)n2-c2ccccc2)cc1", "test": "annexin V/PI staining", "conditions": "2.5 µM, 24 h", "quantity": "necrotic cells", "result": "3.05%"}
{"Molecule": "CCN1C(=O)/C(=C\\c2ccc(OC)cc2)S/C1=N/N=C(\\C)c1ccccn1", "test": "cell growth or viability, SRB", "conditions": "100 µg/mL, 48 h", "quantity": "inhibition", "result": "65.4%"}
{"Molecule": "Cc1c(C)c2c(c(C)c1O)CCC(C)(C(=O)NN=C1C(=O)Nc3ccc(Cl)cc31)O2 (stereo not drawn)", "test": "cell growth or viability, SRB", "conditions": "48 h", "quantity": "GI50", "result": "76400 nM"}
{"Molecule": "O=C(CNC1CCCCC1)Nc1nc2ccccc2s1", "test": "cell growth or viability, MTT", "conditions": "100 µM, 72 h", "quantity": "inhibition", "result": "34.4%"}
{"Molecule": "C#C[C@@]1(O)[C@@H](CO)O[C@@H](n2cc(I)c3c(N)ncnc32)[C@@H]1O", "test": "cell growth or viability, SRB", "conditions": "48 h", "quantity": "GI50", "result": "10 to 14 nM"}
{"Molecule": "COc1ccc(/C=C2/S/C(=N/N=C(\\C)c3ccccn3)NC2=O)cc1OC", "test": "cell growth or viability, SRB", "conditions": "100 µg/mL, 48 h", "quantity": "inhibition", "result": "65.4%"}
{"Molecule": "insulin icodec", "test": "DNA synthesis, agonist, 3H-thymidine incorporation", "conditions": "HSA 0%", "quantity": "EC50", "result": "625 nM"}
{"Molecule": "CCCCCCCCCCCCCCCC(=O)N[C@@H](CCCNC(=N)N)C(=O)N[C@@H](CCC(N)=O)C(=O)N1CCC[C@H]1C(=O)N[C@@H](CC(=O)O)C(=O)NCC(=O)N1CCC[C@H]1C(=O)N[C@@H](CC(C)C)C(=O)NCC(=O)N1CCC[C@H]1C(=O)N[C@@H](CC(C)C)C(=O)N[C@@H](Cc1ccc(O)cc1)C(N)=O", "conditions": "48 h, 1% FBS", "quantity": "TGI", "result": "400 ± 50 nM"}
{"Molecule": "CCn1c(C)cs/c1=N/N=C(\\C)c1ccccn1", "test": "cell growth or viability, SRB", "conditions": "100 µg/mL, 48 h", "quantity": "inhibition", "result": "70.6%"}
{"Molecule": "CC/C(=C(\\c1ccc(O)cc1)c1ccc(OCCNC)cc1)c1ccccc1", "test": "antagonist, item: PGR", "conditions": "1 µM, 24 h, with: estradiol 10 nM", "how to read": "baseline: estradiol alone", "quantity": "mRNA level", "result": "10%"}
{"Molecule": "CCCCCCCCCCCCCCCC(=O)N[C@@H](CC(N)=O)C(=O)N[C@@H](CO)C(=O)N[C@@H](CCCNC(=N)N)C(=O)N[C@@H](CC(C)C)C(=O)NCC(=O)N[C@@H](CC(N)=O)C(=O)NCC(=O)N[C@H](C(=O)N[C@@H](CC(C)C)C(=O)N[C@@H](Cc1ccc(O)cc1)C(N)=O)C(C)C", "conditions": "48 h, 1% FBS", "quantity": "TGI", "result": "1500 ± 100 nM"}
{"Molecule": "CCN1C(=O)/C(=C\\c2ccc(F)cc2)S/C1=N/N=C(\\C)c1ccccn1", "test": "cell growth, SRB", "conditions": "100 µg/mL, 48 h", "quantity": "inhibition", "result": "> 70%"}
{"Molecule": "COc1cc(-c2noc(-c3cccs3)c2C(F)(F)F)cc(OC)c1OC", "test": "PI flow cytometry", "conditions": "IC50, 48 h", "quantity": "cells in G2/M-phase", "result": "34.8%"}
{"Molecule": "COC(=O)c1ccc(NC(=O)CNNc2nc3ccccc3c(=O)n2-c2ccccc2)cc1", "test": "annexin V/PI staining", "conditions": "2.5 µM, 24 h, Early apoptosis", "quantity": "apoptotic cells", "result": "3.47%"}
{"Molecule": "COc1cccc2c1C(=O)c1c(O)c3c(c(O)c1C2=O)C[C@@](O)(C(=O)CO)C[C@@H]3O[C@H]1C[C@H](N)[C@H](O)[C@H](C)O1", "test": "cell growth or viability, SRB", "conditions": "48 h", "quantity": "GI50", "result": "< 100 nM"}
{"Molecule": "O=C(CN1CCN(CC(=O)Nc2nc3ccccc3s2)CC1)Nc1nc2ccccc2s1", "test": "cell growth or viability, MTT", "conditions": "100 µM, 72 h", "quantity": "inhibition", "result": "5.23%"}
{"Molecule": "Cc1c(C)c2c(c(C)c1O)CCC(C)(C(=O)NN=C1C(=O)Nc3ccc(Br)cc31)O2 (stereo not drawn)", "test": "cell growth or viability, SRB", "conditions": "48 h", "quantity": "GI50", "result": "57300 nM"}
{"Molecule": "CCN1C(=O)CS/C1=N/N=C(\\C)c1ccccn1", "test": "cell growth or viability, SRB", "conditions": "100 µg/mL, 48 h", "quantity": "inhibition", "result": "64%"}
{"Molecule": "CCCCCCCCCCCCCCCC(=O)N[C@@H](CC(N)=O)C(=O)N[C@@H](CC(N)=O)C(=O)N[C@@H](CO)C(=O)N[C@@H](CCCNC(=N)N)C(=O)N[C@@H](CC(C)C)C(=O)NCC(=O)N[C@@H](CC(N)=O)C(=O)NCC(=O)N[C@H](C(=O)N[C@@H](CC(C)C)C(=O)N[C@@H](Cc1ccc(O)cc1)C(N)=O)C(C)C", "conditions": "48 h, 1% FBS", "quantity": "TGI", "result": "1500 ± 50 nM"}
